Measured values collected from several papers.
Numbered parts are unrelated; each lists some results of a single study. Positions count from the first letter of the parent shown.

Study 1
Target: Ras GTPase-activating protein-binding protein 1, full length (G3BP1, Homo sapiens, UniProt Q13283)
Sequence of UniProt Q13283 (whole entry, looked up): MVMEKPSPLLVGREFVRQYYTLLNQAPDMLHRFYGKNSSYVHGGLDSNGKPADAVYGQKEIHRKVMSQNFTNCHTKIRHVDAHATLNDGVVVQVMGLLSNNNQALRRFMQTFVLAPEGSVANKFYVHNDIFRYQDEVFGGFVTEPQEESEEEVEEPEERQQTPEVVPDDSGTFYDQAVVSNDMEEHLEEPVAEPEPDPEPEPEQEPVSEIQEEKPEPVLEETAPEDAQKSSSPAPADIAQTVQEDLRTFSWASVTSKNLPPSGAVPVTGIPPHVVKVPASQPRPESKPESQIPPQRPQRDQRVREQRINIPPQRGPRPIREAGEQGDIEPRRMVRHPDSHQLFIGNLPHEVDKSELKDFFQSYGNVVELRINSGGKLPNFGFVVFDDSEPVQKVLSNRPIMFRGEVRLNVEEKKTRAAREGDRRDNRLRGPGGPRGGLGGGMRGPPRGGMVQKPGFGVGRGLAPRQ
Technique: RNA Bind-n-Seq
Molecule type: RNA
Sample: in vitro
Concentration: 200 nM
Setting: whole 134-nt RNA, ends assumed
With: 150 mM LiCl
Relative to: input library
Direction: higher = stronger binding
Each molecule: 7-deaza-guanosine replaces G
Shared flanks, not repeated: GGGAGUUCUACAGUCCGACGAUC … UGGAAUUCUCGGGUGUCAAGG
Sequence | log2 enrichment
UAACUUCAGAGGAGGAUCUGAUGGAUAUGGCAGUGGACGUGGAUUUGGGGAUGGCUAUAAUGGGUAUGGAGGAGGACCUGGAGGUGGCAA | -0.0162
CACAGACAACACGCACCCACACCGACACAGAGGGAAGGGGUUGGGAUGGGGACAGGGUGCACAGCAGGGCGGGGUAGGACCCCAGCCCCU | -0.283
UUCCCGGAGAACUCGAGUAAAUCUAGAAGUUGCCAGGUUUCAGAACUAUUUAUUCCUUUAAUGUGCAGACGAAGGGAACGUCAUCGUUUG | -0.00293
AAGUCCUGUGCUACACAUCGUAUGUACCGAAUCGGGGAAAGGGGAGGGGUUUGGGGAAAGUAUUAUGUUACGCCGUUCGGAUCUGCACUU | -0.28
ACCAUGCAGGUGGGCAUCUUUGGGAAGUGGGGCAAGGGGGGGAUAGGGAGGGGGGUAACACCUUGGGAACAGGUGGUCCCAGGUCGUUUC | 0.288
UCCGCGUGUGAAGUUUUUCUCGGCUGCAUCAUGGGUGCCACAUUCUUUUUGUUGUUUUCAGUGCUGCAAAAGCCCCAUAUCUGGCCAAGU | 0.373
AGGAAAAUGUUUAUAGGAGGCCUUAGCUGGGACACUACAAAGAAAGAUCUGAAGGACUACUUUUCCAAAUUUGGUGAAGUUGUAGACUGC | -1.51
CCUCAAGUCCUGUGCUACACAUCGUAUGUACCGAAUCGGUUUUUGGUGGAGGAAAGUAUUAUGUUACGCCGUUCGGAUCUGCACUUCCAG | 0.232
CACAGACAACACGCACCCACACAGACACAGAGGGAAGGGGUUGGGAUGGGGACAGGGUGCACAGCAGGGCGGAGUAGGACCCCAGCCCCU | 0.0443
CAAGUCCUGUGCUACACAUCGUAUGUACCGAAUCGGGGUUUGGUUUGGGGUUUGGAAAGUAUUAUGUUACGCCGUUCGGAUCUGCACUUC | -1.32
UGUAUCCCUGUUUCUUUUCUCCCUACAGAAACAUAUGAGGAUUUUGAUACCAGGAUACUUGAGGUAGGCAUGCAGAAUUAAAUACCUGGU | 0.483

Study 2
Target: Sox, HMG box (Pigoraptor chileana)
Technique: Spec-seq
Molecule type: double-stranded DNA, one strand shown
Sample: in vitro
Concentration: not given
Setting: whole probe, mean of replicates
Relative to: not given
Direction: lower = stronger binding
Shared flanks, not repeated: GAGTCGTCTCGTCAGCAC … CCGTAGAGCACTCAGGTC
Residues (chain): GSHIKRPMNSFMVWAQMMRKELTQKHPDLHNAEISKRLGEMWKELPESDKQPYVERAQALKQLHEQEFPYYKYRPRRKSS
Sequence | relative binding energy
GAGTGTT | 0.367 ln ratio
CATACTC | 0.426 ln ratio
CATGCCT | 0.811 ln ratio
CATTCGA | 0.552 ln ratio
CTGTGTT | -0.625 ln ratio
CATCGAT | 0.401 ln ratio
TCAAGTT | 0.448 ln ratio
TAGAGTT | 0.163 ln ratio
CATGAAA | 0.215 ln ratio
TACAGTT | -0.458 ln ratio
CATTATT | -2.1 ln ratio
ACTGGTT | -0.232 ln ratio
GTGAGTT | 1.1 ln ratio
GATCGTT | 1.17 ln ratio
CATTACT | 0.282 ln ratio
CATGGTG | 0.536 ln ratio
TATTGTT | -3.28 ln ratio
GGGCGTT | 1.7 ln ratio
CATGCCG | 0.684 ln ratio
GCATGTT | 0.0112 ln ratio
CATTTTA | 0.173 ln ratio
GCTGGTT | 0.856 ln ratio
AGAAGTT | 0.0953 ln ratio
AGTTGTT | -2.03 ln ratio
CATTCGT | 0.696 ln ratio

Study 3
Target: Histone acetyltransferase KAT6A, winged helix 2, GST fusion (KAT6A, Homo sapiens, UniProt Q92794, residues 85-181)
Technique: protein binding microarray
Molecule type: double-stranded DNA, one strand shown
Sample: in vitro
Concentration: not given
Setting: 8-mer, flanks averaged, mean of 2 arrays, mostly near background
Relative to: not given
Direction: higher = stronger binding
Residues (chain): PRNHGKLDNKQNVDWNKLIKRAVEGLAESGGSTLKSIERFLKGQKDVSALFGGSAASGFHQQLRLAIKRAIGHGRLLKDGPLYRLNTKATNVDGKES
Sequence | E-score
ATAAAGGC | -0.0167
CGGGACGC | 0.0135
GCGATGAC | 0.0217
ACTGTGCA | -0.0579
CGTTGTAC | -0.143
CCTATCCG | -0.149
ACTTGCGG | -0.051
CATCTGGC | 0.205
CCCCACGG | 0.131
AAAAAAGC | 0.0214
AACAACTT | -0.00951
TAGTAGAA | -0.0866
GATCTACC | 0.102
AGTATAGA | 0.0124
CCTAGCTA | -0.125
GCACGGAC | 0.0559

Study 4
Target: RNA binding protein fox-1 homolog 2, RRM domain, GST-SBP tag (RBFOX2, Homo sapiens, UniProt O43251-10, residues 100-194)
Technique: RNA Bind-n-Seq
Molecule type: RNA
Sample: in vitro
Concentration: 365 nM
Setting: natural RNA segment, single round, ends assumed
Relative to: no-protein control
Direction: higher = stronger binding
Shared flanks, not repeated: GGGAGUUCUACAGUCCGACGAUC … UGGAAUUCUCGGGUGCCAA
Residues (chain): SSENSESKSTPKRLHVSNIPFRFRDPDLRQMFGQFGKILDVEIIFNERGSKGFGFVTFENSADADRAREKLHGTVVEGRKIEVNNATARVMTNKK
Sequence | RBNS enrichment (R)
UGUUCUUUCUUCAUCAUAAUUUGAGAUACAUCCUGAGUAUGACUGUCUAACCCUUUCUGUGUGGCAGAAAAAUAUGUUUUCCAGGUAGUUUUUACUACUACAGAGAGUCU | 0.39
ACUCAUAACAAUUUCCUGUGCCAUUCUCUGUACACAGAGGUGAUUCAUUUACUCUCCCAUUAGUAGAACUUGCACUUUGGGCUGUCUGUUCUAGUAUUUGGGAAGUGUUU | 0.38
AUGAAAACCCAACCUACAAAUACCUGGAGCAGAUGCAGAUUUAAGGACAGCGUGUGUGACACCCUGGCUGAGGCUGCUGCAGGUGGGCUGGAAGAGGCUCAGCGUUUGUG | 0.419
ACCAGUUUUUACUUUCUGUCUAGAAUGAUGUACAUGUAGUAGAGUAAGCCAUAAUGCUCCCAAAGUGCCUUGUUUUCUCUGAUACAAACAUAUUUAUAAGGACAUAUUCC | 0.42
UUAUAACAUAUCCAGCCAUUUCAAUUUUGAUUGAAAUGAACUACAAAGAAUAGUGUUUGUCCCUAUGGUAGCCUCAGUCUCUUUAUCACUAACUUGGAUUGAAAUGAGUG | 0.337
AAGCAAGUACUGCAUUUCCUAUGCAACAAAAAAAGGAAAAAUAAAAAAAAAAUUGCUAAUGCUACGGAAGCCGUGUCCUCUUUUGCUGUGUACACAAUGCCUGGGGUGAG | 2.45
GGAUUCCGUCUGCAGAGGAGGACGUAGGGGGCCGUCACACCCACCAGGCCUCCCUGCUGUGCUUUAACACAGGCAGAAGAGGUUCAUGGCAAUAUAAUAGUCAAUGAACU | 0.221
UUAAGUUACAAUUACAUCUCUAAUUUUGGAUAAUAUUCAUUGGUUAACAAUAAAGUGACAAAAGCUCUGCCUUCAAGGUCCACUGUUGUUAUUUAACAUGGAUUUUUUGU | 0.285
UUUGGAGUGGAGCAGGCCCAGGAAGAGAAGAAGUCAGGAAAAGACAUGACCCCUAGGGAGCUCUGACUGAGGAGGGAGGGUUGCUUCAGUCAGUGGCUCAGAGAUAGGGC | 1.77
GCUCUCCUCCCAGCAUCACACCAGCCAUGCAGCCAGCAGGUCCUCCGGAUCACUGUGGUUGGGUGGAGGUCUGUCUGCACUGGGAGCCUCAGGAGGGCUCUGCUCCACCC | 0.279
GUCACUGUGAAUCGUGGCCCAGUCUCAGUUUGUAGUUUCUCAUUAAAUUGGCCCUUUCACUCCCCCGCCUGGGCCUCUGCUCUCUUGCCUGGCUUCCUUCUUUUUUGAGG | 0.589
CAUUCCAGAGUGCAUCAGAACUGUCAUCCCUUCCAGGACCUUCUCAGGAGUAACACAUCAGGUAUGUCAUCAGCGCUGGGAACCGUGAACGCCAAGGACACUCGCCACUA | 0.358

Study 5
Substance: PhoQ, residues 284 288 289 292 302 303 SIHLQL
Technique: Sort-seq
Measured: YFP reporter
Sample: E. coli
Setting: PhoQ-PhoP variant library
With: 10 µM Mg2+
Relative to: high Mg2+ state
Direction: higher = stronger signaling
target | fold induction
PhoP, residues 12 14 15 18 19 LHTVL (Escherichia coli, UniProt P23836) | 1.97
PhoP, residues 12 14 15 18 19 TQAML (Escherichia coli, UniProt P23836) | 16.1
PhoP, residues 12 14 15 18 19 NQCAL (Escherichia coli, UniProt P23836) | 21.8

Study 6
Target: Sal-like protein 4, full length isoform A (SALL4, Homo sapiens, UniProt Q9UJQ4, residues 1-1053)
Sequence of UniProt Q9UJQ4 (whole entry, looked up): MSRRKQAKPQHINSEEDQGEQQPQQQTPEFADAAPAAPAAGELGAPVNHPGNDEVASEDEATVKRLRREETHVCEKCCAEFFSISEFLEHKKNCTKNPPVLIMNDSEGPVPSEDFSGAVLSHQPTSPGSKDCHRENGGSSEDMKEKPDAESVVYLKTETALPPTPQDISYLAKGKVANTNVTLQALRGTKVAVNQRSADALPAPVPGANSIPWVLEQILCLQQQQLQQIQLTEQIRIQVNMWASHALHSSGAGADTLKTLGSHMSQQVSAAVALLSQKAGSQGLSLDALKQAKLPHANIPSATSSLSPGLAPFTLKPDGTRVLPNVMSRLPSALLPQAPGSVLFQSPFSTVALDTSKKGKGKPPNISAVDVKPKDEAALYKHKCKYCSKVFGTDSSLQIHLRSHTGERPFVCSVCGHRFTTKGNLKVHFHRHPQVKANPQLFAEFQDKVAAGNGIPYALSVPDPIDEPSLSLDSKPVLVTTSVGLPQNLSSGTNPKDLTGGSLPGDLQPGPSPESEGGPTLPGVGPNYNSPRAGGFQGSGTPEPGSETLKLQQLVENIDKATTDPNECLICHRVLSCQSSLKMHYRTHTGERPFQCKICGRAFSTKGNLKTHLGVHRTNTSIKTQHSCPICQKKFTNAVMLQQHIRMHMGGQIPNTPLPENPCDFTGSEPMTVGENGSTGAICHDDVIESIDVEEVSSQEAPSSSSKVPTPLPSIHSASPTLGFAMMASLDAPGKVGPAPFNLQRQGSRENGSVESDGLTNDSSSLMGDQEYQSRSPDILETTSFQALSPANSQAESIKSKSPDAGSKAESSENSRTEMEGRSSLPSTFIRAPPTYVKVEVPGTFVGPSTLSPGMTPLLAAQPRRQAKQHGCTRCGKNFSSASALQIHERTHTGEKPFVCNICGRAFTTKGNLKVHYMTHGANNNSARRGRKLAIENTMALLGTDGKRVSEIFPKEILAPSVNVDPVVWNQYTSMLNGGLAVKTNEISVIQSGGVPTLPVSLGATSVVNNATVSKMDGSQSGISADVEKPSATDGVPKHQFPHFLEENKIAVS
Technique: universal PBM
Molecule type: double-stranded DNA, one strand shown
Sample: in vitro
Concentration: 600 nM
Setting: 8-mer, flanks averaged, mean of replicates
Direction: higher = stronger binding
Sequence | E-score
CCACTCAG | -0.127
CTGGACGC | -0.278
GAACTGCC | -0.198
ACGCGAAC | -0.127
CAACAAGG | 0.0428
ACGTCGGG | -0.358
ATGCGTAA | 0.289
AATCTCCC | -0.131
AGGTCGGA | -0.176
ATAGCTCC | 0.0303
TTATTGAA | 0.42
AGAGCGGC | -0.158
ACAAACCG | -0.0596
AAAACAAA | 0.291
CCATGATA | 0.184
CCTTTAGC | -0.146
AAGCGGCC | -0.315
AGATTGAC | -0.041
CGACAGGA | -0.00558

Study 7
Target: XBP1, bZIP domain (human)
Technique: DHFR protein complementation
Sample: yeast
Setting: single substitutions, most at no-binding floor
Relative to: wild-type JUN-FOS pair
Direction: higher = stronger binding
Starting sequence: JUN, bZIP domain (human); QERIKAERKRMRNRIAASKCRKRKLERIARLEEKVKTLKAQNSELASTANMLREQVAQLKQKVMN; partner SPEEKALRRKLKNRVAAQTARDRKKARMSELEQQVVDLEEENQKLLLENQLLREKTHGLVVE
Variant | binding fitness
I28R | -1.12 natural log
A49R | -0.163 natural log
N42L | -1.39 natural log
E44W | -1.25 natural log
K36I | -0.994 natural log
Q41M | -0.763 natural log
S47C | -0.807 natural log
Q55S | -1.17 natural log
K34T | -1.05 natural log
Q41F | -1.49 natural log
L31Y | -1.53 natural log
Q41R | -0.711 natural log
A29H | -0.852 natural log
R53K | -0.79 natural log
E54L | -1.3 natural log
A29E | -0.938 natural log
V56K | -1.53 natural log
T37N | -0.596 natural log
K39Q | -0.864 natural log
M51W | -0.836 natural log
V35A | -1.36 natural log
L31S | -1.46 natural log
Q55T | -0.753 natural log
R53L | -1.24 natural log
A46N | -0.836 natural log
